Measured values collected from several papers.
Each numbered part is a random draw from the data of one study; scales do not carry over between parts. Substitutions count along the parent as printed.

Series 1
Target: Centromere-binding protein 1, full length, His-tagged (CBF1, Saccharomyces cerevisiae, UniProt P17106, residues 1-351)
Sequence of UniProt P17106 (whole entry, looked up): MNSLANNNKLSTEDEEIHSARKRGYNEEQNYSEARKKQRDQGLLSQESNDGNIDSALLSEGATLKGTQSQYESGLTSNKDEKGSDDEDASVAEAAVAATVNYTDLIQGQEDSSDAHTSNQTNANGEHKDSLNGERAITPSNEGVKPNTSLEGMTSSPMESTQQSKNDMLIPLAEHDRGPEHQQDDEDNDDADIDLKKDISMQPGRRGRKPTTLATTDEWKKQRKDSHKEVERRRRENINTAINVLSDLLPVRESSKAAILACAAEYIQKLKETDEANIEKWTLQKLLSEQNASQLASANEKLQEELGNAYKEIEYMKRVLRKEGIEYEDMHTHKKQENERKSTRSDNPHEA
Technique: competition protein-binding microarray
Form: double-stranded DNA, one strand shown
Sample: in vitro
Concentration: 2 µM
Setting: whole 60-bp probe, lowest competitor level
Together with: Pho4 competitor, 0.05 µM
Reading: higher = stronger binding
All sequences stand within: … GTCTTGATTCGCTTGACGCTGCTG
Oligonucleotide | fluorescence intensity [a.u.]
TGCGCAACAACTTGCTTTGTGGGTGTATGTCTAGAA | 82.1
TCAAGTATCTTTTAGCACGTATCAGATAACTAATGG | 99.8
AAATTACTAAGTTGATGAGTGGGTGACGCCGTATGA | 71.6
TGCCGGTAATGCAAGCTCGTGCTTTCGCGATCGTAG | 87.7
CATACCCAACCTTGTCACCACACTTAAGATATTTGT | 85.8
CTTTCCCGATCTTGTCACCATACTTTAGCACATTTG | 78.4
TTACCGTCACCCGTACATGTGTGAGCAGAGGTACAA | 80.4
GTCTTGTCTCATTGCATCGTGGGTGTCCCCACTTCA | 90.1
TCGGGCTCCGTTTCGTCCGTGGGTACTCCAGCAGAT | 45.7
TAACAGCCAAGTACCCACGGGTTTCTCTAGCCTCAT | 73.7
TCGGTAGGGCCATCTCGCGTGCCAGAACAGACAAGA | 89.3
ATCAACATCGGCCTCCCCGTGCTAATATGTTAACAG | 121
CGATATAGCACCGACCATGTGGGCAAATTCGTAATA | 103
CTTCTGTAAATTTGTCAAGTGGGTGGACGCGCCCCG | 81.6
CAAAACGTTAGTTTAGTCGTGCTAAACCGCTATTTT | 77.9
GCCATTAGTTTTTTACCTGTGTGGCCATTATACATA | 76.5
TGTTTGAGTGGCCAAGACGTGTTGAACTTCAGAAGT | 78.6
AAATTACTAAGTTGACAAGTGGGTGACGCCGTATGA | 76
AAAGCGGTAATTTGCACAGTGGGTGCAGATATCTAT | 70.1

Series 2
Target: ABI1, truncated, D143A, DHFR fusion (Arabidopsis thaliana)
Technique: DHFR PCA, deep sequencing
Sample: yeast
Setting: methotrexate growth selection, single substitutions
Together with: (+)-ABA 200 µM
Relative to: wild-type fitted maximum
Reading: higher = stronger binding
Parent: PYL1, truncated, DHFR fusion (Arabidopsis thaliana); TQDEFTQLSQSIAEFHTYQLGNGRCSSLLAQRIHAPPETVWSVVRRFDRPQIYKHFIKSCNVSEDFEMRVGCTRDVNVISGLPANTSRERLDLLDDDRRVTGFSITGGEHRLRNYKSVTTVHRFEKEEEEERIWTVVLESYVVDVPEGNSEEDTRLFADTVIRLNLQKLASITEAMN; partner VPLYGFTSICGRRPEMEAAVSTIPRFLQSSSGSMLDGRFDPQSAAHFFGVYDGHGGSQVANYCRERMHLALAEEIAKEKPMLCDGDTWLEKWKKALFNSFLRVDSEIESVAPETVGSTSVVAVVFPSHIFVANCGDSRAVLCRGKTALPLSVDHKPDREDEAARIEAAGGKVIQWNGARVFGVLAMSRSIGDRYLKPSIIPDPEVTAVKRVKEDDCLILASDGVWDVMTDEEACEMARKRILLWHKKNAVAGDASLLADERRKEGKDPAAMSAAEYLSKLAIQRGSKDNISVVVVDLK
Variant | relative binding score [%]
Y53H | 92.5
I79S | 98.8
A158K | -8.56
R24V | 93.5
T106F | 106
R113I | 106
R45V | 15
E151M | 91.3
M176L | 96.5
Y141P | 7.99
H55F | 90.2
R111G | 43.5
N177S | 96.4
V121T | 53.6
E109K | 107
R163D | 44.8
S87E | -14.1

Series 3
Target: Sal-like protein 4, full length isoform A (SALL4, Homo sapiens, UniProt Q9UJQ4, residues 1-1053)
Sequence of UniProt Q9UJQ4 (whole entry, looked up): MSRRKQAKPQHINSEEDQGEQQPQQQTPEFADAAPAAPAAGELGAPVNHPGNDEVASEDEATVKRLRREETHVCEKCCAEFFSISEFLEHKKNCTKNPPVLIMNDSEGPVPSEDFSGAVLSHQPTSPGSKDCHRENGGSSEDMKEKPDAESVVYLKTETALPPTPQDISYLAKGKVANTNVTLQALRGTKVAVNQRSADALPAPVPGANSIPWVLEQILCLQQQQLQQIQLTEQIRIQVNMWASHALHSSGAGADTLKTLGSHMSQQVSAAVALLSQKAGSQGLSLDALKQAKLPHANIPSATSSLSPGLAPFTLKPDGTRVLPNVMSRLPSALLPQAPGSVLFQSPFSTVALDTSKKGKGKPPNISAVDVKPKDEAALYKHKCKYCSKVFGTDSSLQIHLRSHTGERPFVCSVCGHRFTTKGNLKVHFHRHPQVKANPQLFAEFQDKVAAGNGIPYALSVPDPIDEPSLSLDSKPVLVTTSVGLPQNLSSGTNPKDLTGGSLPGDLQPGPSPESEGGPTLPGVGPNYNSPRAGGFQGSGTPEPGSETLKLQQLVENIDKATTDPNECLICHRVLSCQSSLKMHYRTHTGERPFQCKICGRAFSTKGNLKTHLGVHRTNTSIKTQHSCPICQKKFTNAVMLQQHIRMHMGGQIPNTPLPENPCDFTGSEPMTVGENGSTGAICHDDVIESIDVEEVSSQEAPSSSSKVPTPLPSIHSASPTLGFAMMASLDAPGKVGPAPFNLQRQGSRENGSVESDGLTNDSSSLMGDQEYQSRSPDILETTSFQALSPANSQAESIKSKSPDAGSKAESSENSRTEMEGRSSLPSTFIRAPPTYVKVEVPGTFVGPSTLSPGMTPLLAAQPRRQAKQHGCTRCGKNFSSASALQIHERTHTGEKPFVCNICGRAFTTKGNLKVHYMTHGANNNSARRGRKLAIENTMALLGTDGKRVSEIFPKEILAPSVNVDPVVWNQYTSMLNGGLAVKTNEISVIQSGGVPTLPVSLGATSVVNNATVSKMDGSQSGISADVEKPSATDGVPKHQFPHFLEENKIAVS
Technique: universal PBM
Form: double-stranded DNA, one strand shown
Sample: in vitro
Concentration: 600 nM
Setting: 8-mer, flanks averaged, mean of replicates
Reading: higher = stronger binding
Oligonucleotide | E-score
CGGCGGAC | -0.341
GCTCCGAC | -0.22
ATCTCCCA | -0.0342
AACCCACG | -0.163
AAAAGCAC | -0.0244
ATATCGGG | 0.0615
GCCGAACC | -0.195
AACAGGGC | -0.161
CTCTCGTA | 0.0147
CGATTGAC | 0.101
GTGCTATA | 0.297
AACACTGC | -0.0398
GAATTAAC | 0.168
CCCCTAAC | -0.182
TATCGTGA | 0.125
CGCCCGTA | -0.311
ATCAGACG | -0.0735
AGTGCGAC | -0.247
AGCTGATA | 0.222
AAGAAACC | -0.0764
AAAGCATA | 0.266
GACGGCTA | -0.161

Series 4
Target: BIRC6 UBC core domain (UniProt Q9NR09)
Technique: yeast two-hybrid
Sample: yeast
Setting: mostly zero background
Relative to: not given
Reading: higher = stronger interaction
B1: RNF25 RING domain (UniProt Q96BH1); chain LTDNNIPHGQCVICLYGFQEKEAFTKTPCYHYFHCHCLARYIQHMEQELKAQGQEQEQERQHATTKQKAVGVQCPVCREPLVYDLASL
B2: ARK2C RING domain (UniProt Q6ZSG1); chain EGEESDTDEKCTICLSMLEDGEDVRRLPCMHLFHQLCVDQWLAMSKKCPICRVDIETQLGAD
B3: RC3H2 RING domain (UniProt Q9HBD1); chain QAAQWTEFLSCPICYNEFDENVHKPISLGCSHTVCKTCLNKLHRKACPFDQTAINTDIDVL
B4: ZNF598 RING domain (UniProt Q86UK7); chain AAAPERGGGSCVLCCGDLEATALGRCDHPVCYRCSTKMRVLCEQRYCAVCREELRQVVFGK
B5: TRIM69 RING domain (UniProt Q86WT6); chain VIQDITMELHCPLCNDWFRDPLMLSCGHNFCEACIQDFWRLQAKETFCPECKMLCQYNNCTF
B6: CUL9 RING domain (UniProt Q8IWT3); chain AQAVPVRPDHCPVCVSPLGCDDDLPSLCCMHYCCKSCWNEYLTTRIEQNLVLNCTCPIADCPAQPTGAFIR
Target sequence (chain): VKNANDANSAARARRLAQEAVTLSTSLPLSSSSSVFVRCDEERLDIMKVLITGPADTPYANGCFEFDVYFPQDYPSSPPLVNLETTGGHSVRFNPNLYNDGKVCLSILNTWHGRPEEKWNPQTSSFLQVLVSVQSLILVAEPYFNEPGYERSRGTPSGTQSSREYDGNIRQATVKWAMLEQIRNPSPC
Sequence | lacZ reporter activity
DDENSDNSNECVVCLSDLRDTLILPCRHLCLCTSCADTLRYQANNCPICRLPFRALLQIR (MGRN1 RING domain (UniProt O60291)) | 0
VTLSLTLPITCHICLGKVRQPVICINNHVFCSICIDLWLKNNSQCPACRVPITPENPCK (OBI1 RING domain (UniProt Q5W0B1)) | 0
PEELQAMDNVCIICREEMVTGAKRLPCNHIFHTSCLRSWFQRQQTCPTCRMDVLRASLPA (SYVN1 RING domain (UniProt Q86TM6)) | 0
B1 (RNF25 RING domain) | 0
RLTMMWEEVTCPICLDPFVEPVSIECGHSFCQECISQVGKGGGSVCPVCRQRFLLKNLRP (TRIM21 RING domain (UniProt P19474)) | 0
B2 (ARK2C RING domain) | 0
QHHELTSLFECPVCFDYVLPPILQCQAGHLVCNQCRQKLSCCPTCRGALTPSIRNL (SIAH2 RING domain (UniProt O43255)) | 0
B3 (RC3H2 RING domain) | 0
B4 (ZNF598 RING domain) | 0
B5 (TRIM69 RING domain) | 0
B6 (CUL9 RING domain) | 0

Series 5
Target: CCNF, cyclin fold, Cln2 fusion (human)
Technique: yeast growth competition, sequencing
Sample: yeast
Setting: strong parent motif
Relative to: not given
Reading: higher = stronger binding
Parent: CDKN1C docking peptide (human); TSACRSLFGPVDH
Variant | normalised enrichment score
TSACRSLFGPADH [V11A] | 6.11
TSACRSAFGPVDH [L7A] | -0.183
TSACRSLAGPVDH [F8A] | 0.411
TSACASAFGPVDH [R5A L7A] | -0.412
TSACKSLLGPVDH [R5K F8L] | 0.524
TSACASLFGPVDH [R5A] | -0.749
TSACRSLFAPVDH [G9A] | 5.22
TSACKSLFGPVDH [R5K] | 2.73
ASACRSLFGPVDH [T1A] | 6.26

Some of these lines once more (series 3):
Oligonucleotide | E-score
ATCTCCCA | -0.0342
AACCCACG | -0.163
AAAAGCAC | -0.0244
ATATCGGG | 0.0615
GCCGAACC | -0.195
AACAGGGC | -0.161
CTCTCGTA | 0.0147
CGATTGAC | 0.101
GTGCTATA | 0.297
AACACTGC | -0.0398
GAATTAAC | 0.168
CCCCTAAC | -0.182
TATCGTGA | 0.125
